Published values from different studies.
Numbered parts are unrelated; each lists some results of a single study. Substitutions count along the parent as printed.

Set 1
Target: Histone acetyltransferase KAT6A, both winged helices, GST fusion (KAT6A, Homo sapiens, UniProt Q92794, residues 1-181)
Technique: protein binding microarray
Molecule type: double-stranded DNA, one strand shown
Matrix: in vitro
Tested at: not given
Notes: 8-mer, flanks averaged, mean of 2 arrays, mostly near background
Relative to: not given
Direction: higher = stronger binding
Target sequence (chain): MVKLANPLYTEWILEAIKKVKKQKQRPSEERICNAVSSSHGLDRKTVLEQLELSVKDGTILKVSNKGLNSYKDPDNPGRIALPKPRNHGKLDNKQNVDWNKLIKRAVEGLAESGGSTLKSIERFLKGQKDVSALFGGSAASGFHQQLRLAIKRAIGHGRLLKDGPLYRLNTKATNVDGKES
| Oligonucleotide | E-score |
| --- | --- |
| CTCAGGGA | -0.312 |
| CGTATACG | 0.131 |
| ATATACCG | 0.188 |
| ATAGAGAG | -0.232 |
| AGATCTCC | -0.162 |
| CGGTTTGC | 0.187 |
| CCCTCTCG | -0.143 |
| TCATTTCA | -0.0964 |
| GCACTTCA | 0.0541 |
| GACGAGGC | -0.0119 |
| AACATTAC | -0.0284 |
| ATGGCACG | 0.1 |
| CGCGATCC | 0.204 |
| GATTTGAC | 0.0995 |
| ACTTTTTC | 0.00486 |
| AAACCCTG | -0.147 |
| GGCCTCCC | -0.0689 |
| GGACTTCA | 0.00091 |
| TGCCGACA | 0.249 |
| GGCGACCA | 0.0988 |
| AGCCCACG | -0.109 |
| AGTCAATC | -0.13 |
| CATGCCAA | -0.264 |
| TACTGCAA | -0.226 |
| CGCCCGCG | 0.319 |

Set 2
Target: ABI1, truncated, D143A, DHFR fusion (Arabidopsis thaliana)
Technique: DHFR PCA, deep sequencing
Matrix: yeast
Notes: methotrexate growth selection, single substitutions
Added: (+)-ABA 0 µM
Relative to: wild-type fitted maximum
Direction: higher = stronger binding
Starting sequence: PYL1, truncated, DHFR fusion (Arabidopsis thaliana); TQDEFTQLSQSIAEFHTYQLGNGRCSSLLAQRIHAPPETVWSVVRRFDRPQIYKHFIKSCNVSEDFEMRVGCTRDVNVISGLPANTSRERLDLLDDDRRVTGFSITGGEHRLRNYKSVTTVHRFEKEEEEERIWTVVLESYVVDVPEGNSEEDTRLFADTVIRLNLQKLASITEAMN
| Substitution | relative binding score [%] |
| --- | --- |
| S150P | 2.23 |
| S87F | 31.3 |
| D97E | 45.2 |
| S80A | 12.6 |
| V62M | 4.71 |
| T160H | 6.27 |
| T1S | 27.6 |
| N149I | 37.3 |
| R46K | 4.32 |
| V100A | 24.1 |
| K126Y | 17.8 |
| D3E | 47 |
| S11N | 7.29 |
| I172Y | -7.36 |
| I79E | 12.4 |
| T73H | 23.7 |

Set 3
Target: Fragile X messenger ribonucleoprotein 1, C-terminal low-complexity region (Fmr1, Mus musculus, UniProt P35922)
Technique: RNA Bind-n-Seq
Molecule type: RNA
Matrix: in vitro
Tested at: 200 nM
Notes: whole 134-nt RNA, ends assumed
Added: 150 mM KCl
Relative to: input library
Direction: higher = stronger binding
All sequences stand within: GGGAGUUCUACAGUCCGACGAUC … UGGAAUUCUCGGGUGUCAAGG
| Oligonucleotide | log2 enrichment |
| --- | --- |
| CCUGUGCUACACAUCGUAUGUACCGAAUCGGGAAAAAAGGGGAAAAAAGGGAAAAAAGGGGAAAGUAUUAUGUUACGCCGUUCGGAUCUG | -0.496 |
| CAAGUCCUGUGCUACACAUCGUAUGUACCGAAUCGGGUUUUUGGGAAAGGGAGGGAAAGUAUUAUGUUACGCCGUUCGGAUCUGCACUUC | 0.945 |
| CUGUGCUACACAUCGUAUGUACCGAAUCGGGGUUUUUUGGGGUUUUUUGGGGUUUUUUGGGAAAGUAUUAUGUUACGCCGUUCGGAUCUG | -0.174 |
| CUGUGCUACACAUCGUAUGUACCGAAUCGGGGAAAAAAAGGGGUUUGGGGAAAAAAAGGGGAAAGUAUUAUGUUACGCCGUUCGGAUCUG | -0.498 |
| UCCUCAAGUCCUGUGCUACACAUCGUAUGUACCGAAUCGGGUGGGGUGGUGGAAAGUAUUAUGUUACGCCGUUCGGAUCUGCACUUCCAG | 0.483 |
| GUCCUGUGCUACACAUCGUAUGUACCGAAUCAAACCCCCAAACCCAAAUUUUUUUAAAAAAGUAUUAUGUUACGCCGUUCGGAUCUGCAC | -0.0255 |
| CUCAAGUCCUGUGCUACACAUCGUAUGUACCGAAUCGGCCCGGCCCGGGCCCGGAAAGUAUUAUGUUACGCCGUUCGGAUCUGCACUUCC | -0.583 |
| UGGGAGGUGGAUAUUGUUUAUUUUUUUAGCUCAUUUCCAGGGGUGGGAAUUUUUUUUUAAUAUGUGUCAUGAAUAAAGUUGUUUUUGAAA | 0.224 |
| CAAGUCCUGUGCUACACAUCGUAUGUACCGAAUCGGGGUUUGGUUUGGUUUGGGGAAAGUAUUAUGUUACGCCGUUCGGAUCUGCACUUC | 0.0328 |

Set 4
Target: CCNE2, cyclin fold, Cln2 fusion (human)
Technique: yeast growth competition, sequencing
Matrix: yeast
Notes: weak parent motif
Relative to: not given
Direction: higher = stronger binding
Starting sequence: SLBP docking peptide (human); ARYKRKLLINDFG
| Substitution | normalised enrichment score |
| --- | --- |
| K6H | -0.173 |
| D11W | 0.367 |
| K6S | -0.0879 |
| L7K | 0.585 |
| R5V | 0.872 |
| R5D | 0.365 |
| L8D | 0.473 |
| R2S | -0.105 |
| N10C | 0.853 |
| D11Y | 1.32 |
| A1S | 1.19 |
| Y3A | 0.581 |
| F12P | 0.28 |
| R5Q | -0.247 |
| A1T | 1.46 |
| Y3F | 0.312 |
| K4R | 0.378 |

Repeated from above (set 2):
| Substitution | relative binding score [%] |
| --- | --- |
| S150P | 2.23 |
| D3E | 47 |
| S80A | 12.6 |
| R46K | 4.32 |
